Experimental data collected from several papers.
Protocols differ between the studies behind these lines. Values joined by “and” are separate records of one study, mostly repeats; a detail may differ. ± gives the spread as reported.
Nuclear receptor subfamily 2 group C member 2 ligand-binding domain: Nuclear receptor subfamily 2 group C member 2, ligand-binding domain (Homo sapiens, UniProt P49116)
Sequence of UniProt P49116 (whole entry, looked up): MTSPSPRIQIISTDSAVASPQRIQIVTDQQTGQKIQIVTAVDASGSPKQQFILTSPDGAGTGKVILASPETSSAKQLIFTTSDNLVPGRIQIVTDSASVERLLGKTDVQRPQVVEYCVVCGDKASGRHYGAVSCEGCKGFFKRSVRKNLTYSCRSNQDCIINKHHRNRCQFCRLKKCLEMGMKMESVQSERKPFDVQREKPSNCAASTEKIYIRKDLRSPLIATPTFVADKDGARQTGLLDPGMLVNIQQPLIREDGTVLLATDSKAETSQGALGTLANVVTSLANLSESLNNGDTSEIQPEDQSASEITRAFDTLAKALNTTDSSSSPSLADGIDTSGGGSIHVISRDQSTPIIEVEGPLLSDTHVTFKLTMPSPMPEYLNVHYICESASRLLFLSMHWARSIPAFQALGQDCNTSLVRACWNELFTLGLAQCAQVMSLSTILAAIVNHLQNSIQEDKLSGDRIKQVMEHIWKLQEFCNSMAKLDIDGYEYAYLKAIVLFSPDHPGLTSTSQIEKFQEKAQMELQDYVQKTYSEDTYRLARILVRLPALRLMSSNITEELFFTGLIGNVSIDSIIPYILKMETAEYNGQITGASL

CC(=O)Nc1cccc(-n2c(=O)n(C3CC3)c(=O)c3c(Nc4ccc(I)cc4F)n(C)c(=O)c(C)c32)c1 — viability (A-431; WST-8; 1 µM, 25 h, together with: IFN-γ): 117%
CN1C(C(=O)Nc2ccccn2)=C(O)c2sc(Cl)cc2S1(=O)=O — apoptotic cells (COS-7; 30 µM, 24 h, 0.1% DMSO, unit not given; reference: vehicle control): 0.62 ± 0.12
COc1ccc(-c2nn(-c3ccccc3)cc2C=NNc2cn[nH]c(=O)c2Cl)cc1 — CC50 (CEM; differential nuclear staining; 48 h): > 40 µM
COc1cc2ncnc(Nc3ccc(Oc4ccccc4)cc3C)c2cc1OC.O=C(O)C(F)(F)F — viability (COLO 205 (BRAF V600E); resazurin; 3 µM, 72 h, together with: trametinib 0 nM): 0.621 fraction of control
O=C(O)c1cc(O)c2c(c1)C(=O)c1cccc(O[C@@H]3O[C@H](CO)[C@@H](O)[C@H](O)[C@H]3O)c1C2=O — cell viability (HepaRG co-cultured with HK-2; MTT; 16.67 µM, 48 h; reference: untreated control): 79.3 ± 9.76%
CCN1CCN(c2cc(N3CCN(CC)CC3)nc(NCCNc3ccnc4cc(Cl)ccc34)n2)CC1 — necrotic cells (COS-7; 20 µM, 24 h, 0.1% DMSO, unit not given; reference: vehicle control): 1.3 ± 0.31
COC[C@@H](CC(C)C)NC(=O)c1ccc(C)c(C)c1 — mean mitotic index (primary human lymphocytes; 225 µg/mL, 4 (unit not given), with S9): 11.7
CCc1c(-c2ccccc2)c(-c2ccccc2)nn1-c1ccccc1-c1cccc(OCC(=O)O)c1 — viability (mouse bone marrow macrophages; CCK-8; 20 µM, 4000 cells; reference: untreated): 93.7% and 82% and 80.5% and 85.8% and 77.5% and 97.1%
CCC(=O)NS(=O)(=O)c1ccc(-c2c(-c3ccccc3)noc2C)cc1 — confluence (COS-7; 100 µM, 24 h, 0.1% DMSO, unit not given; reference: control): 0.91 ± 0.04
COc1c(O[C@@H]2O[C@H](CO)[C@@H](O)[C@H](O)[C@H]2O)c(C)cc2c1C(=O)c1c(O)cccc1C2=O — cell viability (HepaRG co-cultured with HK-2; MTT; 133.33 µM, 24 h; reference: untreated control): 52.5 ± 9.34%
Cc1cc(Cl)cc2sc(N(CCCn3ccnc3)C(=O)C3CC3)nc12 — CC50 (human cells): 46.4 µM
COc1cccc(-c2ccc(NC(=O)C3=C(C(=O)O)CCC3)c(F)c2)c1 — confluence (COS-7; 3 µM, 24 h, 0.1% DMSO, unit not given; reference: vehicle control): 0.92 ± 0.04
CC(C)N(CCCNC(=O)Nc1ccc(C(C)(C)C)cc1)C[C@H]1O[C@@H](n2cc(Br)c3c(N)ncnc32)[C@H](O)[C@@H]1O — viability (OCI-Ly1; 1 µM, 120 h): 95.4%
COc1cc2c(c(O)c1OC)C(=O)c1c(cc(C)c(O)c1OC)C2=O — cell viability (HepaRG co-cultured with HK-2; MTT; 66.67 µM, 48 h; reference: untreated control): 69.8 ± 8.02%
C=C(C)[C@@H]1CC[C@]2(C)CC[C@]3(C)[C@H](CC[C@@H]4[C@@]5(C)CC[C@H](O)C(C)(C)[C@@H]5CC[C@]43C)[C@@H]12 — IC50 (human gingival fibroblasts; cytotoxicity; 48 h): > 100 µg/mL
O=C(O)c1cc(O)c2c(c1)C(=O)c1cccc(O)c1C2=O — cell viability (HepaRG co-cultured with HK-2; MTT; 66.67 µM, 24 h; reference: untreated control): 75.6 ± 4.2%
C[C@@H](NCCCc1cccc(C(F)(F)F)c1)c1cccc2ccccc12 — Kd (Nuclear receptor subfamily 2 group C member 2 ligand-binding domain; SPR imaging): 0.000985 µM
Cc1ccc(CNC(=O)Cn2cc(CSc3nc4ccccc4[nH]3)nn2)cc1 — viability (HEK293; MTT; 500 ppm): 9.11%
Cc1cc(O)c2c(c1)C(=O)c1cccc(O)c1C2=O — cell viability (HepaRG co-cultured with HK-2; MTT; 133.33 µM, 48 h; reference: untreated control): 57.4 ± 10.4%
COc1cccc(-c2n[nH]c(SCc3ccccn3)n2)c1OC — micronuclei per binucleated cell (CHO-WBL; 300 µg/mL, 3 h, without S9): 0.013
COc1c(O)c(C)cc2c1C(=O)c1c(ccc(O)c1O)C2=O — cell viability (HepaRG co-cultured with HK-2; MTT; 133.33 µM, 48 h; reference: untreated control): 38.9 ± 2.58%
C[C@]12CC[C@@H]3c4ccc(O)cc4CC[C@H]3[C@@H]1C[C@@H](O)[C@@H]2O — Kd (Nuclear receptor subfamily 2 group C member 2 ligand-binding domain; SPR imaging): 0.000166 µM
CCN(CCO)CCCC(C)Nc1ccnc2cc(Cl)ccc12 (stereo not shown) — recovery (hiPSC-derived ventricular cardiomyocytes; IKr current; 10 µM, 4 min washout): 70.7%
COc1cc2ncnc(Nc3ccc(Oc4ccccc4)c(C)c3C)c2cc1OC.Cl — viability (COLO 205 (BRAF V600E); resazurin; 0.3 µM, 72 h, unit not given, together with: trametinib; reference: DMSO): 0.882
Cc1cc(C(=O)NC(C)(C)COc2cccc3c2C(N)=NS(=O)(=O)N3)cc(C)n1 — cytotoxicity (human peripheral blood lymphocytes; CBPI, concurrent micronucleus test; 1000 µg/mL, 24 h; reference: vehicle control): 4%
CC1CS(=O)(=O)CCN1/N=C/c1ccc([N+](=O)[O-])o1 (stereo not shown) — viability (PMA-differentiated THP-1 macrophages; 50 µM, 24 h): 111 ± 6.9%
COc1c(O)c(C)cc2c1C(=O)c1c(O)cccc1C2=O — cell viability (HepaRG co-cultured with HK-2; MTT; 66.67 µM, 24 h; reference: untreated control): 86.8 ± 16.6%
C=C(c1ccc(C(=O)O)cc1)c1cc2c(cc1C)C(C)(C)CCC2(C)C — metabolic activity (COS-7; WST-8; 100 µM, 24 h, 0.1% DMSO, unit not given; reference: control): 0.15 ± 0.01
COc1cc2c(c(O)c1OC)C(=O)c1c(cc(C)c(O[C@@H]3O[C@H](CO)[C@@H](O)[C@H](O)[C@H]3O)c1OC)C2=O — cell viability (HepaRG co-cultured with HK-2; MTT; 66.67 µM, 48 h; reference: untreated control): 64 ± 14.2%
CC(=O)Nc1cccc(-n2c(=O)n(C3CC3)c(=O)c3c(Nc4ccc(I)cc4F)n(C)c(=O)c(C)c32)c1 — viability (SW1417; 0.1 µM, 72 h, unit not given; reference: DMSO): 0.824 and 0.351 and 1.01 and 0.828 and 0.58 and 0.498
CC[C@H](C)C(=O)O[C@H]1C[C@H](O)C=C2C=C[C@H](C)[C@H](CC[C@@H](O)C[C@@H](O)CC(=O)O)[C@H]21 — confluence (COS-7; 10 µM, 24 h, 0.1% DMSO, unit not given; reference: vehicle control): 1 ± 0.03
CC(C(=O)Nc1cccc(/N=C/c2c(O)ccc3ccccc23)c1)c1ccccc1 (stereo not shown) — viability (OCI-Ly1; 1 µM, 120 h): 146%
COCCOCc1ccc(-c2cc3onc(-c4ccccc4)c3c(=O)n2C)cc1 — confluence (COS-7; 10 µM, 24 h, 0.1% DMSO, unit not given; reference: vehicle control): 0.92 ± 0.02
COc1ccc2c(Cc3ccccc3F)c3[n+](cc2c1OC)CCc1cc2c(cc1-3)OCO2 — IC50 (HFL1; cytotoxicity, CCK-8; 24 h): 63.4 µM
CCCCCCCCC(=O)c1cc(O)c(O)c(O)c1 — apoptotic cells (COS-7; 30 µM, 24 h, 0.1% DMSO, unit not given; reference: vehicle control): 1.44 ± 0.42
c1cc(-c2nc(N3CCNCC3)c3c4c(sc3n2)CCCC4)ccn1 — VEGF-induced permeability (bovine primary retinal endothelial; Transwell; 0.01 µM, together with: VEGF, RITC-dextran 70 kDa): no effect
Cc1noc(C)c1Cn1cc(N2C(=O)CN(Cc3cccc(O)c3)C2=O)cn1 — aberrant cells without gaps (human blood lymphocytes; 1300 µg/mL, 3 h, with 5% S9): 6%
